Published values gathered from unrelated publications.
Lines come from different studies, so protocols differ. Numbers after ± are the reported error.
Chain of UniProt O14920 (whole entry, looked up): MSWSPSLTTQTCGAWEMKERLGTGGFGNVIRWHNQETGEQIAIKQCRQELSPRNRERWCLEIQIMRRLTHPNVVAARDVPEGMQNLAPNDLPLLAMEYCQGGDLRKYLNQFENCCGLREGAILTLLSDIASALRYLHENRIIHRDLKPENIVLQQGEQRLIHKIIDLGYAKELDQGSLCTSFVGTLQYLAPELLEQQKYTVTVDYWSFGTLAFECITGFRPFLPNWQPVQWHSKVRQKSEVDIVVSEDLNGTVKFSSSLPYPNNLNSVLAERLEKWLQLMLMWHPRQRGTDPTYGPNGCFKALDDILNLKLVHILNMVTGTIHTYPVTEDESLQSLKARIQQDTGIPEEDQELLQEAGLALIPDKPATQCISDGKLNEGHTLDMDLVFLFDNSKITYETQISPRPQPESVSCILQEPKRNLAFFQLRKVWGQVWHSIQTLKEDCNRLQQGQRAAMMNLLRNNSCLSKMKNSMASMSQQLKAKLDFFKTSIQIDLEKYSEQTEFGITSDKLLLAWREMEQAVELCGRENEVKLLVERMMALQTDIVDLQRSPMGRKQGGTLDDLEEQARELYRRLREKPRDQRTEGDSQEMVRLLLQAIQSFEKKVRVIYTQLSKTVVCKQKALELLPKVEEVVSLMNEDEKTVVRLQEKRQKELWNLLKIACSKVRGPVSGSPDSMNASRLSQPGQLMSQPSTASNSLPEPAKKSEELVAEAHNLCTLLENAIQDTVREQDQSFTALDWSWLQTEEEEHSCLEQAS
Chain of UniProt Q7KZI7 (whole entry, looked up): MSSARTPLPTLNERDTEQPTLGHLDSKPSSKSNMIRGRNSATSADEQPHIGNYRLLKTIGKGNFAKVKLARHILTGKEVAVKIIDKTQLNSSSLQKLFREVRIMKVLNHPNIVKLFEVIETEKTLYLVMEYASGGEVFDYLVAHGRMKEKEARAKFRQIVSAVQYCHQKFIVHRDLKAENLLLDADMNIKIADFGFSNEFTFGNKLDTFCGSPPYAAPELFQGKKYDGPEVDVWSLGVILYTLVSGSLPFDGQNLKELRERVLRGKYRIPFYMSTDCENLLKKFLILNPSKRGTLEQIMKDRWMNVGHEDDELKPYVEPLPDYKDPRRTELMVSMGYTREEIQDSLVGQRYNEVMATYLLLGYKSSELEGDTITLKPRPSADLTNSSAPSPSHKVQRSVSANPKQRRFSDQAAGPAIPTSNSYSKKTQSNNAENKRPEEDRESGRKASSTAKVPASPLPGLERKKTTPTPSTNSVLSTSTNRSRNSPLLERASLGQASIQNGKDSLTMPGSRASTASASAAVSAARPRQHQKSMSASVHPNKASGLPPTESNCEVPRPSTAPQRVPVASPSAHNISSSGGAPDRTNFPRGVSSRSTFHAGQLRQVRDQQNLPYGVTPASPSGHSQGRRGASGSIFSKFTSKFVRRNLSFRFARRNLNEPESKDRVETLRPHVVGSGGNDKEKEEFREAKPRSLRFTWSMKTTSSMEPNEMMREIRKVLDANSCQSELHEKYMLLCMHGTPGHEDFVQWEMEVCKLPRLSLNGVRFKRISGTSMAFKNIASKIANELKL
Chain of UniProt Q92947 (whole entry, looked up): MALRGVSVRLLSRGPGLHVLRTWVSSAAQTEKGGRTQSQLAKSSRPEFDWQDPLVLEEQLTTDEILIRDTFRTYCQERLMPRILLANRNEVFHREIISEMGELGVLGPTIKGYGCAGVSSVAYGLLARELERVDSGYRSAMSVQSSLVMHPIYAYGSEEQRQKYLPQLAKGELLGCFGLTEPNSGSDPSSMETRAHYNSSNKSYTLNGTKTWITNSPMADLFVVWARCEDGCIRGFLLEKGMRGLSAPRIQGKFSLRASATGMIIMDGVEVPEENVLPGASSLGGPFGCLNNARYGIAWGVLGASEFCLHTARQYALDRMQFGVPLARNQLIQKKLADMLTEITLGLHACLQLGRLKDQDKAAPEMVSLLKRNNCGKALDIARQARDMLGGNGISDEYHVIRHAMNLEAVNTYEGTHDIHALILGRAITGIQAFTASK
Chain of UniProt Q9BYT3 (whole entry, looked up): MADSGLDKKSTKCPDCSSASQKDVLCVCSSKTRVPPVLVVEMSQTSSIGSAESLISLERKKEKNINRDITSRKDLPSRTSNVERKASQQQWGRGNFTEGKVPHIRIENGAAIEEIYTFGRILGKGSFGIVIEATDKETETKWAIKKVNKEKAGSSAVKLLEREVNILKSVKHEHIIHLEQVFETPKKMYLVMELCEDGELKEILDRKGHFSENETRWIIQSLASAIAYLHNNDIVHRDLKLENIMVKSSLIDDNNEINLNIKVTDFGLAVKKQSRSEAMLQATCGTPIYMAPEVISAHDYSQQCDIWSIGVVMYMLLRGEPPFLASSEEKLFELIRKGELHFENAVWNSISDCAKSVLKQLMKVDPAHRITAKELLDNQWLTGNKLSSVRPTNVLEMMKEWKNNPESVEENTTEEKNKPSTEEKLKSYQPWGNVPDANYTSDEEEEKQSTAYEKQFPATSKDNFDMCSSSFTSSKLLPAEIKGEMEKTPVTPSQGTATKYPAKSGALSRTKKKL
Chain of UniProt Q13705 (whole entry, looked up): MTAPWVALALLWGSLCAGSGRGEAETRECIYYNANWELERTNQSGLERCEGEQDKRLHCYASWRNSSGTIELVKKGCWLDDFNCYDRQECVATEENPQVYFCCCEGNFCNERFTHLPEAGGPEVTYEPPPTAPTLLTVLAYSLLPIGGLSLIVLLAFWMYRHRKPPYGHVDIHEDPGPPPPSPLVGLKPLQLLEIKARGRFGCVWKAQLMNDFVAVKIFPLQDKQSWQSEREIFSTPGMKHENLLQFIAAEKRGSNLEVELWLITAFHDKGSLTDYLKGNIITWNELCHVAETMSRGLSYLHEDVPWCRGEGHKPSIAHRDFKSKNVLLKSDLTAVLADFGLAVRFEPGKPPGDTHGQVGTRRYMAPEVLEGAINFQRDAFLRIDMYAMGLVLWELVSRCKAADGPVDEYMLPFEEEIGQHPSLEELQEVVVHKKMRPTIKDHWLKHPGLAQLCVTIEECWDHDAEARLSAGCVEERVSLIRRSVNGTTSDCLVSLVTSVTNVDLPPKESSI
Chain of UniProt Q13546 (whole entry, looked up): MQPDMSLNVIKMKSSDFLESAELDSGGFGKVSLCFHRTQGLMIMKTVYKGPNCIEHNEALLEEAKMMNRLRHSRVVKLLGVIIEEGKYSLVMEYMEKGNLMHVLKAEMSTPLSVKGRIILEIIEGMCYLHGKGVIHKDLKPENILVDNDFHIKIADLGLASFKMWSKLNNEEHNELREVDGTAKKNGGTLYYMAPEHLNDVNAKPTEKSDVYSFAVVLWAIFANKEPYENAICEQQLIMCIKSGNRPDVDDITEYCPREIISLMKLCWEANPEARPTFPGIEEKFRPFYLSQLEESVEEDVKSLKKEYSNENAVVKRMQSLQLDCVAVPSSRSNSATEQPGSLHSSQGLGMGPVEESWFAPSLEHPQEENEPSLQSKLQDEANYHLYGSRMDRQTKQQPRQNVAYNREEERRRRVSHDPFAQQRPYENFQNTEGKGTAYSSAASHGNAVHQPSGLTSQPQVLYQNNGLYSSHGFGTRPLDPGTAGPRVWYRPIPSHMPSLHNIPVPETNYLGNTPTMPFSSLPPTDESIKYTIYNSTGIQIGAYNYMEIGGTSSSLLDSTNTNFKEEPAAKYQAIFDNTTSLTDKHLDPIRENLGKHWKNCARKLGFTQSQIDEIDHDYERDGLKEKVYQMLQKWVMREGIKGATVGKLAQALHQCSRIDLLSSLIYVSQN
Chain of UniProt Q8TD08 (whole entry, looked up): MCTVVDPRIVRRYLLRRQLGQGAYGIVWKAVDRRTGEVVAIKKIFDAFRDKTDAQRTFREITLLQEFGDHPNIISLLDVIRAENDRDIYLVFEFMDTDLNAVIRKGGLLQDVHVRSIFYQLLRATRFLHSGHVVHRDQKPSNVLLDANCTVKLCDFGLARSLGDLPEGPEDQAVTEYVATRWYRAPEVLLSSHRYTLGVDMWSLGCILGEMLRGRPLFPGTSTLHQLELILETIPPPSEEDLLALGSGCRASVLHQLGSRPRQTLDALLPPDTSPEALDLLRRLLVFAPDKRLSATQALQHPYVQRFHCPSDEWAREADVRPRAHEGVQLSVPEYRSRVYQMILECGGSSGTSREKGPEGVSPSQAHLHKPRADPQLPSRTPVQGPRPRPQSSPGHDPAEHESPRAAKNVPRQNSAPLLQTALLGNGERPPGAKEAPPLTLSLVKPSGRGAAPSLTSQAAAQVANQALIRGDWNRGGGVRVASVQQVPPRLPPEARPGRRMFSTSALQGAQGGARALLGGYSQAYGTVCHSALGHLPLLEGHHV
Chain of UniProt P22310 (whole entry, looked up): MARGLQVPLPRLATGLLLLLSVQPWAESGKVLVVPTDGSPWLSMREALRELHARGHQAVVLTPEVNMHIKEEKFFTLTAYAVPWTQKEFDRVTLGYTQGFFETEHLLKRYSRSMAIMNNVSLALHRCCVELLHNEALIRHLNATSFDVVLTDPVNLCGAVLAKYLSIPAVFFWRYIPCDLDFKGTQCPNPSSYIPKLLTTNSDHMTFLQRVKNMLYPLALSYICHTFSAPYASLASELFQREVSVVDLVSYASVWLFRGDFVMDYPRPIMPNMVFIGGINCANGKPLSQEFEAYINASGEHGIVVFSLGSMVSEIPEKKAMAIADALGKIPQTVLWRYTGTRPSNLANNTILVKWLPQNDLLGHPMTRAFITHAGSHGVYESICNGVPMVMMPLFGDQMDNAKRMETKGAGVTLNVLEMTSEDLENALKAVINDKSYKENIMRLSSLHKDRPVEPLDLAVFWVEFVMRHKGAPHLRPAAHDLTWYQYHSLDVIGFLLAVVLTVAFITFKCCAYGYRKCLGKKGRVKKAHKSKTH

Compound | target or system | assay | test system | conditions | scale | endpoint | value
O=C(O)c1ccc(Nc2ncc3c(n2)-c2ccc(Cl)cc2C(c2c(F)cccc2F)=NC3)cc1 | MKK4(m) | kinase activity | – | 1 µM | – | remaining activity | 120%
CC(C)C[C@H](NC(=O)C[C@H](O)[C@H](CC(C)C)NC(=O)[C@H](Cc1c[nH]cn1)NC(=O)CNC(=O)[C@@H](NC(=O)[C@H](C)NC(=O)[C@H](Cc1c[nH]c2ccccc12)NC(=O)[C@H](CCC(N)=O)NC(=O)[C@@H](Cc1ccccc1)NC(=O)COCCOCCNC(=O)CCC(C(=O)O)N1CCN(CC(=O)O)CCN(CC(=O)O)CCN(CC(=O)O)CC1)C(C)C)C(N)=O (stereo partly shown) [lutetium-177 labelled] | – | – | BALB/c nu/nu mice, lung | intravenous, 250 pmol, 1 h, added: PA 300 µg | – | tissue uptake | 0.9 ± 0.7 %ID/g
COc1cc(Nc2ncc3c(n2)-c2ccc(Cl)cc2C(c2c(F)cccc2OC)=NC3)ccc1C(=O)O | GRK6 | kinase activity | – | 1 µM | – | remaining activity | 94%
C[C@@H]1CC[C@@]2(OC1)O[C@H]1C[C@H]3[C@@H]4CC[C@H]5C[C@@H](O)CC[C@]5(C)[C@H]4CC(=O)[C@]3(C)[C@H]1[C@@H]2C | UDP-glucuronosyltransferase 1A4 (UGT1A4, Homo sapiens, UniProt P22310) | glucuronidation, inhibitor | human liver microsomes | 10 µM, added: probe substrate 0.5 µM | baseline: no inhibitor | remaining activity | ~25%
CNCC(=O)O | Sodium- and chloride-dependent glycine transporter 1 (SLC6A9, Homo sapiens, UniProt P48067, G373S) | glycine uptake, inhibitor | – | 3000 µM, added: [3H]glycine | baseline: no inhibitor | remaining activity | 88.6%
COc1cc(-c2cncc3c2CN(C)Cc2cc(N4CCNCC4)ccc2-3)cc(OC)c1OC | Receptor-interacting serine/threonine-protein kinase 1 (RIPK1, Homo sapiens, UniProt Q13546) | kinase activity | – | 1 µM, human enzyme, added: ATP 10 µM | baseline: DMSO control | remaining activity | 108%
O=C(NC1CCC1)c1ccc2nc(-c3cccc(NS(=O)(=O)NCCN4CCCCC4)c3)cn2c1 | Activin receptor type-2B (ACVR2B, Homo sapiens, UniProt Q13705) | enzyme activity | – | 10 µM | – | remaining activity | 100%
COc1cc(O)c2c(c1)C(=O)c1cc(C)cc(O)c1C2=O | HepaRG co-cultured with HK-2 | MTT | – | 33.33 µM, 48 h | baseline: untreated control | cell viability | 94.7 ± 10.4%
C=CC(=O)N1CCC[C@@H](n2nc(-c3ccc(Oc4ccccc4)cc3)c3c(N)ncnc32)C1 | Glutaryl-CoA dehydrogenase, mitochondrial (Homo sapiens, UniProt Q92947) | – | – | 0.1 µM | – | remaining activity | 115%
Cc1cc(Nc2cc(N3CCN(C)CC3)nc(Sc3ccc(NC(=O)C4CC4)cc3)n2)[nH]n1 | Serine/threonine-protein kinase 33 (STK33, Homo sapiens, UniProt Q9BYT3) | kinase activity, KinaseProfiler | – | 0.03 µM, species human | baseline: control | remaining activity | 96%
COc1c(O)c(C)cc2c1C(=O)c1c(O)cccc1C2=O | HepaRG co-cultured with HK-2 | MTT | – | 266.67 µM, 48 h | baseline: untreated control | cell viability | 39.6 ± 8.26%
CNc1ncc2c(/C=C/C(=O)N3CCC(OC)CC3)nn(Cc3cccc(C(F)(F)F)c3)c2n1 | Mitogen-activated protein kinase 15 (MAPK15, Homo sapiens, UniProt Q8TD08) | kinase activity, inhibitor | – | 1 µM | baseline: untreated control | remaining activity | 95%
CN(C(=O)C(C)(C)c1cc(C(F)(F)F)cc(C(F)(F)F)c1)c1cnc(N2C[C@H]3COCCN3C[C@H]2CO)cc1-c1ccc(F)cc1[14CH3] | – | substrate, refers to: M30/34 formation | human liver microsomes | – | – | Vmax | 282 pmol/min/mg
COc1cc(F)ccc1-c1ncnc(Nc2cccc(C[S@](C)(=N)=O)c2)n1 | Serine/threonine-protein kinase MARK2 (MARK2, Homo sapiens, UniProt Q7KZI7) | kinase activity | – | 10 µM, added: 10 µM ATP | – | remaining activity | 83%
Cn1cc(-c2ccc(-c3cncc(Cl)c3N3CCC4(CCNC4=O)CC3)cc2)cn1 | COLO 205 | gene expression, microarray, refers to: PLAUR mRNA | – | concentration not given, 6 h | baseline: untreated cells | log2 fold change | 1.71
O=C1NC(=O)/C(=C/c2ccc(-c3ccc(F)cc3O)o2)S1 | Inhibitor of nuclear factor kappa-B kinase subunit beta (IKBKB, Homo sapiens, UniProt O14920) | enzyme activity | – | 10 µM | – | remaining activity | 73%

For quick reference, copied from above:
Compound | target or system | assay | test system | conditions | scale | endpoint | value
C[C@@H]1CC[C@@]2(OC1)O[C@H]1C[C@H]3[C@@H]4CC[C@H]5C[C@@H](O)CC[C@]5(C)[C@H]4CC(=O)[C@]3(C)[C@H]1[C@@H]2C | UDP-glucuronosyltransferase 1A4 (UGT1A4, Homo sapiens, UniProt P22310) | glucuronidation, inhibitor | human liver microsomes | 10 µM, added: probe substrate 0.5 µM | baseline: no inhibitor | remaining activity | ~25%
CC(C)C[C@H](NC(=O)C[C@H](O)[C@H](CC(C)C)NC(=O)[C@H](Cc1c[nH]cn1)NC(=O)CNC(=O)[C@@H](NC(=O)[C@H](C)NC(=O)[C@H](Cc1c[nH]c2ccccc12)NC(=O)[C@H](CCC(N)=O)NC(=O)[C@@H](Cc1ccccc1)NC(=O)COCCOCCNC(=O)CCC(C(=O)O)N1CCN(CC(=O)O)CCN(CC(=O)O)CCN(CC(=O)O)CC1)C(C)C)C(N)=O (stereo partly shown) [lutetium-177 labelled] | – | – | BALB/c nu/nu mice, lung | intravenous, 250 pmol, 1 h, added: PA 300 µg | – | tissue uptake | 0.9 ± 0.7 %ID/g
